Experimental data gathered from unrelated publications.
Organism: Escherichia coli

CC(C)=CCc1cc([C@@H]2CC(=O)c3ccc(O)c(CC=C(C)C)c3O2)c(O)c(CC=C(C)C)c1O — MIC (TISTR 780): 128 µg/mL
CSCC[C@H](NC(=O)[C@H](CCCNC(=N)N)NC(=O)[C@H](Cc1c[nH]c2ccccc12)NC(=O)[C@H](CCC(N)=O)NC(=O)[C@H](Cc1c[nH]c2ccccc12)NC(=O)[C@H](CCCNC(=N)N)NC(=O)[C@@H](N)CCCNC(=N)N)C(=O)N[C@@H](CCCCN)C(=O)N[C@@H](CCCCN)C(=O)N[C@@H](CC(C)C)C(=O)NCC(=O)NCCCC[C@H](NC(=O)CNC(=O)[C@H](CC(C)C)NC(=O)[C@H](CCCCN)NC(=O)[C@H](CCCCN)NC(=O)[C@H](CCSC)NC(=O)[C@H](CCCNC(=N)N)NC(=O)[C@H](Cc1c[nH]c2ccccc12)NC(=O)[C@H](CCC(N)=O)NC(=O)[C@H](Cc1c[nH]c2ccccc12)NC(=O)[C@H](CCCNC(=N)N)NC(=O)[C@@H](N)CCCNC(=N)N)C(=O)NCCCCCC(N)=O — MIC (broth microdilution; ATCC 43827; 24 h, 37 °C): 8 µM
CCc1[nH]c(C(=O)N[C@@H]2CCN(c3nnc(C(C)(C)O)s3)C[C@@H]2OC)nc1Cl — MIC (ATCC 25922): 64 µg/mL
Cc1[nH]c(=O)c(CNC(=O)c2ccc(C(F)(F)F)nc2)c2c1CCCC2 — MIC (agar double dilution; ESBL clinical isolate): > 128 µg/mL
CCCCCCCCCCN1C(=O)/C(=N\NC(N)=S)c2cc(C)ccc21 — MIC (microbial growth, broth dilution; 18 h): > 192 µg/mL
C[n+]1ccc(/C=C2\Sc3ccccc3N2CCCN2CCCC2)c2ccccc21 — MIC (microbial growth, broth dilution; ATCC 8739, ATCC8739): 4 µg/mL
CCCCO[C@H]1[C@H](O)[C@@H](N)[C@@H](O[C@H]2[C@H](O[C@@H]3O[C@H](CO)[C@@H](O[C@H]4O[C@@H](CN)[C@@H](O)[C@H](O)[C@H]4N)[C@H]3O)[C@@H](O)[C@H](N)C[C@@H]2N)O[C@@H]1CO — MIC (broth microdilution; clinical isolate AG 001): 64 µg/mL
CN(c1ccccc1C(=O)N1CCc2cc(S(=O)(=O)N3CCN(c4cc(C(F)(F)F)cc(Cl)n4)CC3)ccc21)S(C)(=O)=O — MIC (microbial growth, broth dilution; 25922; 22 h): 0.63 µg/mL
COCO[C@H]1[C@H](O)[C@@H](N)[C@@H](O[C@H]2[C@H](O[C@@H]3O[C@H](CO)[C@@H](O[C@H]4O[C@@H](CN)[C@@H](O)[C@H](O)[C@H]4N)[C@H]3O)[C@@H](O)[C@H](N)C[C@@H]2N)O[C@@H]1CO — MIC (broth microdilution; clinical isolate AG 001): 128 µg/mL
C/C(=N/NC(=N)N)c1nnn(-c2ccc(C#Cc3ccsc3)cc2)c1C — MIC (microbial growth, broth dilution; BW25113): > 64 µg/mL
C=CCC1COC(=O)N1/N=C/c1ccc([N+](=O)[O-])o1 (centres unmarked) — MIC (microbial growth, broth dilution; ATCC25922; 18 h): > 50 µg/mL
COc1ccc2ccc3c(c2c1)C=[N+]1C2CCCCC2[N+]2=Cc4ccc(OCCN5CCCCC5)cc4[O][Au-]21[O]3.F[P-](F)(F)(F)(F)F (centres unmarked) — MIC (bacterial growth, broth microdilution; carbapenem-resistant clinical isolate; 24 h): 20 µM
COc1cc2c(=O)c(C(=O)NCCNCCO)cn(Cc3ccccc3)c2cc1OCc1ccc(C(C)(C)C)cc1 — MIC (ATCC 25922; ≥80% growth inhibition): 1 µg/mL
COc1ccc2ccc3c(c2c1)C=[N+]1C2CCCCC2[N+]2=Cc4ccc(C)cc4[O][Au-]21[O]3.F[P-](F)(F)(F)(F)F (centres unmarked) — MIC (bacterial growth, broth microdilution; carbapenem-resistant; 24 h): > 20 µM
COC(Cn1ccn(C)[c]1=[Ag][O]C(C)=O)c1ccccc1 (centres unmarked) — MIC (broth dilution; ATCC 25922; 18 h, 37 °C): 5 µg/mL
O=C1OCC(O)N1/N=C/c1ccc([N+](=O)[O-])o1 (centres unmarked) — MIC (microbial growth, broth dilution; ATCC25922; 18 h): 1.56 µg/mL
CCn1cc[n+](CC)[c]1[Au-][Cl] — MIC (broth dilution; DSM 1116; 20 h, 37 °C): 22.4 µM
C/C(=N\NC(N)=S)c1ccc2c(c1)sc1nc(=O)c(C#N)cn12 — MIC (microbial growth, broth dilution): < 44 µg/mL
FC(F)(F)c1cc(CSc2nnc(C34CC5CC(CC(C5)C3)C4)n2-c2ccccc2)cc(C(F)(F)F)c1 — MIC (microbial growth, broth dilution; IFO3301; 24 h): 2 µg/mL
O=C1c2ccccc2C(=O)c2c1ccc1c2C(C(=O)NCc2ccccc2)C(=O)C1c1ccccc1 (centres unmarked) — MIC (microbial growth): > 100 µg/mL
COc1ccc2ccc3c(c2c1)C=[N+]1C2CCCCC2[N+]2=Cc4cccc(OC)c4[O][Au-]21[O]3.F[P-](F)(F)(F)(F)F (centres unmarked) — MIC (bacterial growth, broth microdilution; carbapenem-resistant; 24 h): 20 µM
NC[C@H]1OB(O)c2c(OCCO)cccc21 — MIC (ATCC 25922; M9 medium, with: norvaline 12.5 µM): 3.1 µM
COc1c2c(cc3c1[C@@H]1Oc4c(ccc(O)c4CC=C(C)C)[C@@H]1CO3)OC(C)(C)C=C2 — MIC (TISTR 780): 128 µg/mL
C/C(=N\Nc1nc(C)cs1)c1ccc2c(c1)sc1nc(=O)c(C#N)cn12 — MIC (microbial growth, broth dilution): < 41 µg/mL
Cc1cc(=O)nc(NC(=O)NCCCCCCNC(=O)NCCCCCCNC(=O)OCCOCCOCCOCCOCCOCCOCC(=O)N[C@@H](CCCCN)C(=O)N[C@@H](CCCCN)C(=O)N[C@@H](Cc2ccccc2)C(=O)N2CCC[C@H]2C(=O)N[C@@H](Cc2c[nH]c3ccccc23)C(=O)N[C@@H](Cc2c[nH]c3ccccc23)C(=O)N[C@@H](Cc2c[nH]c3ccccc23)C(=O)N2CCC[C@H]2C(=O)N[C@@H](Cc2ccccc2)C(=O)N[C@@H](CCCCN)C(=O)N[C@@H](CCCCN)C(N)=O)[nH]1 — MIC (ATCC 8937, RPMI medium; 24 h, 37 °C): 30 µM
CC(C)C[C@@H](NC(=O)[C@@H](CCCCN)NC(=O)[C@@H](CCCCNC(=O)[C@@H](CC(C)C)NC(=O)[C@@H](CCCCN)NC(=O)[C@@H](CCCCNC(=O)[C@@H](CC(C)C)NC(=O)[C@@H](CCCCN)NC(=O)[C@@H](CCCCNC(=O)[C@@H](CC(C)C)NC(=O)[C@H](N)CCCCN)NC(=O)[C@@H](CC(C)C)NC(=O)[C@H](N)CCCCN)NC(=O)[C@@H](CC(C)C)NC(=O)[C@@H](CCCCN)NC(=O)[C@@H](CCCCNC(=O)[C@@H](CC(C)C)NC(=O)[C@H](N)CCCCN)NC(=O)[C@@H](CC(C)C)NC(=O)[C@H](N)CCCCN)NC(=O)[C@@H](CC(C)C)NC(=O)[C@@H](CCCCN)NC(=O)[C@@H](CCCCNC(=O)[C@@H](CC(C)C)NC(=O)[C@@H](CCCCN)NC(=O)[C@@H](CCCCNC(=O)[C@@H](CC(C)C)NC(=O)[C@H](N)CCCCN)NC(=O)[C@@H](CC(C)C)NC(=O)[C@H](N)CCCCN)NC(=O)[C@@H](CC(C)C)NC(=O)[C@@H](CCCCN)NC(=O)[C@@H](CCCCNC(=O)[C@@H](CC(C)C)NC(=O)[C@H](N)CCCCN)NC(=O)[C@@H](CC(C)C)NC(=O)[C@H](N)CCCCN)C(N)=O — MIC (broth microdilution; W3110; 37 °C): 1 µg/mL
NC[C@@H]1O[C@H](O[C@H]2[C@@H](O)[C@H](O[C@@H]3[C@@H](O)[C@H](N)C[C@H](N)[C@H]3O[C@H]3O[C@H](CO)[C@@H](OCCO)[C@H](O)[C@H]3N)O[C@@H]2CO)[C@H](N)[C@@H](O)[C@@H]1O — MIC (broth microdilution; clinical isolate AG 002): 32 µg/mL
Cc1cc(/C=C2\Sc3ccccc3N2CCCN2CCCC2)c2ccccc2[n+]1C — MIC (microbial growth, broth dilution; ATCC25922): 4 µg/mL
CCCCc1ccc(N2C(=O)/C(=N\NC(=N)N)c3cc(OC)ccc32)cc1 — MIC (microbial growth, broth dilution; 18 h): 12 µg/mL
C=CCO[C@H]1[C@H](O)[C@@H](N)[C@@H](O[C@H]2[C@H](O[C@@H]3O[C@H](CO)[C@@H](O[C@H]4O[C@@H](CN)[C@@H](O)[C@H](O)[C@H]4N)[C@H]3O)[C@@H](O)[C@H](N)C[C@@H]2N)O[C@@H]1CO — MIC (broth microdilution; clinical isolate AG 001): 64 µg/mL
COc1ccc2ccc3c(c2c1)C=[N+]1C2CCCCC2[N+]2=Cc4c(C)cccc4[O][Au-]21[O]3.F[P-](F)(F)(F)(F)F (centres unmarked) — MIC (bacterial growth, broth microdilution; carbapenem-resistant; 24 h): 20 µM
c1ccc(CN2CCOCCOCCN(CCCCCCCCCCCCCCN3CCOCCOCCN(CCCCCCCCCCCCCCN4CCOCCOCCN(Cc5ccccc5)CCOCCOCC4)CCOCCOCC3)CCOCCOCC2)cc1 — MIC (microbial growth): 3 µM
N=C(N)NCCC[C@@H]1NC(=O)[C@H](CCCNC(=N)N)NC(=O)[C@H](CCCNC(=N)N)NC(=O)[C@H](Cc2c[nH]c3ccccc23)NC(=O)[C@H](Cc2c[nH]c3ccccc23)NC(=O)[C@H](Cc2c[nH]c3ccccc23)NC(=O)[C@H](Cc2c[nH]c3ccccc23)NC(=O)[C@H](CCCNC(=N)N)NC1=O — MIC (broth microdilution; ATCC 35218): 16 µg/mL
CC(C)C(O)C(NC(=O)[C@H](Cc1ccc(O)cc1)NC(=O)C(Cc1ccc(O)cc1)[N+](C)(C)C)C(=O)N[C@@H](C)C(=O)O (some centres unmarked) — MIC (ATCC 25922): > 100 µM
COc1ccc2ccc3c(c2c1)C=[N+]1C2CCCCC2[N+]2=Cc4cccc(C)c4[O][Au-]21[O]3.F[P-](F)(F)(F)(F)F (centres unmarked) — MIC (bacterial growth, broth microdilution; carbapenem-resistant; 24 h): 20 µM
NCC1OC(OC2C(N)CC(N)C(OC3OC(CO)C(O)C(N)C3O)C2OCCCCCCCCn2cc(CNc3nc(NCc4cn(CCCCCCCCOC5C(OC6OC(CN)C(O)CC6N)C(N)CC(N)C5OC5OC(CO)C(O)C(N)C5O)nn4)nc(NCc4cn(CCCCCCCCOC5C(OC6OC(CN)C(O)CC6N)C(N)CC(N)C5OC5OC(CO)C(O)C(N)C5O)nn4)n3)nn2)C(N)CC1O (centres unmarked) — MIC (microbial growth, broth dilution; ATCC25922): 128 µg/mL
CCSC1COC(=O)N1/N=C/c1ccc([N+](=O)[O-])o1 (centres unmarked) — MIC (microbial growth, broth dilution; ATCC25922; 18 h): 50 µg/mL
COc1ccc2ccc3c(c2c1)C=[N+]1C2CCCCC2[N+]2=Cc4cc(C)ccc4[O][Au-]21[O]3.F[P-](F)(F)(F)(F)F (centres unmarked) — MIC (bacterial growth, broth microdilution; carbapenem-resistant; 24 h): > 20 µM

For quick reference, copied from above:
O=C1c2ccccc2C(=O)c2c1ccc1c2C(C(=O)NCc2ccccc2)C(=O)C1c1ccccc1 (centres unmarked) — MIC (microbial growth): > 100 µg/mL
COc1ccc2ccc3c(c2c1)C=[N+]1C2CCCCC2[N+]2=Cc4cccc(OC)c4[O][Au-]21[O]3.F[P-](F)(F)(F)(F)F (centres unmarked) — MIC (bacterial growth, broth microdilution; carbapenem-resistant; 24 h): 20 µM
NC[C@H]1OB(O)c2c(OCCO)cccc21 — MIC (ATCC 25922; M9 medium, with: norvaline 12.5 µM): 3.1 µM
CC(C)=CCc1cc([C@@H]2CC(=O)c3ccc(O)c(CC=C(C)C)c3O2)c(O)c(CC=C(C)C)c1O — MIC (TISTR 780): 128 µg/mL
CSCC[C@H](NC(=O)[C@H](CCCNC(=N)N)NC(=O)[C@H](Cc1c[nH]c2ccccc12)NC(=O)[C@H](CCC(N)=O)NC(=O)[C@H](Cc1c[nH]c2ccccc12)NC(=O)[C@H](CCCNC(=N)N)NC(=O)[C@@H](N)CCCNC(=N)N)C(=O)N[C@@H](CCCCN)C(=O)N[C@@H](CCCCN)C(=O)N[C@@H](CC(C)C)C(=O)NCC(=O)NCCCC[C@H](NC(=O)CNC(=O)[C@H](CC(C)C)NC(=O)[C@H](CCCCN)NC(=O)[C@H](CCCCN)NC(=O)[C@H](CCSC)NC(=O)[C@H](CCCNC(=N)N)NC(=O)[C@H](Cc1c[nH]c2ccccc12)NC(=O)[C@H](CCC(N)=O)NC(=O)[C@H](Cc1c[nH]c2ccccc12)NC(=O)[C@H](CCCNC(=N)N)NC(=O)[C@@H](N)CCCNC(=N)N)C(=O)NCCCCCC(N)=O — MIC (broth microdilution; ATCC 43827; 24 h, 37 °C): 8 µM
